Assay results collected from several papers.
Compare with care: the assays were run in different laboratories.

The Vd of `C/C(N)=N/C(=N\S(=O)(=O)c1ccc(C(F)(F)F)cc1)N1C[C@H](c2ccccc2)C(c2ccc(Cl)cc2)=N1` is reported as 3.7 L/kg (male Sprague-Dawley rat, plasma; intravenous, 3 mg/kg).
With `CCC1(CC)CC(=O)N(C2c3cc(C(=O)NC4c5ccccc5CC4O)ccc3OC2(C)COC)C(=N)N1` (stereo not drawn) the Vd was 9.7 L/kg (male Wistar rat, plasma; intravenous).
`COc1cc(OC)c2c(=O)cc(-c3cc(C)c(OCCCN4CCN(C)CC4)c(C)c3)oc2c1` gave a Vd of 14.1 L/kg (male Sprague-Dawley rat, plasma; oral, 20 mg/kg, single dose).
The Vd of `CCC(CC)n1c(Cc2cccs2)nc2cc(C(=O)N[C@@H](CC(=O)O)c3ccccc3)ccc21` is reported as 3.69 L/kg (male Sprague-Dawley rat, plasma; intravenous, 1 mg/kg).
`CC1(C)C(NC(=O)C(=NOC2(C(=O)O)CC2)c2csc(N)n2)C(=O)N1OS(=O)(=O)O` (stereo not drawn) has a Vd of 0.27 L/kg (rat, plasma; intravenous, 10 mg/kg, single dose).
The Vd of `COCCN(C)CC(=O)NC(Cc1ccc(-c2ccccc2)cc1)B(O)O` (stereo not drawn) is reported as 1.3 L/kg (rat, plasma; intravenous, 1 mg/kg).
With `OC1(C(F)(F)F)CCN(c2nc(Nc3ccnc(C(F)(F)F)c3)nc(-c3cccc(C(F)(F)F)n3)n2)C1` (stereo not drawn) the Vd was 16.9 L/kg (Sprague-Dawley rat, plasma; intravenous, 1 mg/kg).
The Vd of `Cc1cc2c(cc1O)C=C1C=CC(=O)C(C)(C)[C@H]1CC2` is reported as 3.4 L/kg (male Sprague-Dawley rat, plasma; intravenous, 2 mg/kg).
With `Cc1cccc(Cn2ncc3c4cc(F)c(CN(C)C)cc4n(C)c3c2=O)n1` the Vd was 2.09 L/kg (Sprague-Dawley rat, plasma; intravenous, 5 mg/kg).
The Vd of `COC(=O)C1=CNC=C(C(=O)OC)C1c1ccc(F)c(C(F)(F)F)c1` is reported as 5.21 L/kg (male Sprague-Dawley rat, plasma; intravenous, 5 mg/kg).
`OCC1OC(n2cnc3c(NCc4ccc(Br)s4)ncnc32)C(O)C1O` (stereo not drawn) gave a Vd of 5.9 L/kg (male Sprague-Dawley rat, blood; intravenous, 6 mg/kg).
`C[C@@H](CO)NC(=O)c1cc(-c2ccc(Cl)cc2)nn(-c2cnn(C)c2)c1=O` gave a Vd of 1.5 L/kg (male Wistar rat, plasma; intravenous).

Repeated from above:
With `Cc1cccc(Cn2ncc3c4cc(F)c(CN(C)C)cc4n(C)c3c2=O)n1` the Vd was 2.09 L/kg (Sprague-Dawley rat, plasma; intravenous, 5 mg/kg).
The Vd of `COCCN(C)CC(=O)NC(Cc1ccc(-c2ccccc2)cc1)B(O)O` (stereo not drawn) is reported as 1.3 L/kg (rat, plasma; intravenous, 1 mg/kg).
